Experimental data of several laboratories.
Lines come from different studies, so protocols differ. ± marks the error that the study gave.

| Structure (SMILES) | test | test system | conditions | quantity | result |
| --- | --- | --- | --- | --- | --- |
| Cc1cc(C)c(CNC(=O)c2cc(Cl)c3c(c2C)O[C@@](C)([C@H]2CC[C@H](N(C)C)CC2)O3)c(=O)[nH]1 |  | human, relapsed/refractory NHL | concentration not given, all TEAEs, grade 5 | Pruritus incidence | 0% |
| COc1cc2c(Oc3ccc4[nH]c(C)cc4c3F)ccnc2cc1OCC1(N)CC1 |  | paediatric recurrent refractory sarcoma | 10 mg | Rash incidence | 0% |
| CO[C@H]1C[C@@H]2CC[C@@H](C)[C@@](O)(O2)C(=O)C(=O)N2CCCC[C@H]2C(=O)O[C@H]([C@H](C)C[C@@H]2CC[C@@H](OC(=O)NCCOCCOCCOCCOCCOCCOCCOCCOCCC(=O)N3CCc4cc(Cn5nc(-c6ccc7oc(N)nc7c6)c6c(N)ncnc65)ccc4C3)[C@H](OC)C2)C[C@@H](O)[C@H](C)/C=C(\C)[C@@H](O)[C@@H](OC)C(=O)[C@H](C)C[C@H](C)/C=C/C=C/C=C/1C | phase 1 dose escalation | advanced solid tumour patients | intravenous, 12 mg weekly, grade ≥3 | deaths due to TRAEs | 0% |
| CCN1CCN(Cc2ccc(Nc3ncc(F)c(-c4cc(F)c5nc6n(c5c4)[C@H](C)CCC6)n3)nc2)CC1 |  | patients with advanced solid tumours | dose not given, phase Ia monotherapy | hypokalaemia all grades | 20.8% |
| C[C@]1(CO)Cc2ncn(-c3ccc(C#N)c(Cl)c3)c2C(=O)O1 |  | healthy Chinese subjects | dose not given, single dose, all doses | drug-related orthostatic hypotension | 4.2% |
| O=C(Nc1ccccc1)C1CCN(C(=O)Oc2cccnc2)CC1 | adverse event reporting | healthy women | oral, 100 mg, 9 days | subjects with ear discomfort | 15.4% |
| CC[C@H](C)CCCCC(=O)N[C@@H](CCN)C(=O)N[C@H](C(=O)N[C@@H](CCN)C(=O)N[C@H]1CCNC(=O)[C@H]([C@@H](C)O)NC(=O)[C@H](CCN)NC(=O)[C@H](CCN)NC(=O)[C@H](CC(C)C)NC(=O)[C@@H](Cc2ccccc2)NC(=O)[C@H](CCN)NC1=O)[C@@H](C)O |  | human, critically ill adults | intravenous, 1.33 to 6.00 mg/kg/d, median at treatment end | change in serum creatinine | 3.14% |
| Cn1ncc(-c2nc(N[C@H]3CC[C@H](N)CC3)ncc2Cl)c1CC1CC1 | HPLC-MS/MS | patients, plasma | oral, 11 mg, day 1 | AUC | 828 ng·h/mL |
| CC(C)[C@@H]1NC(=O)CNC(=O)[C@H](CC(N)=O)NC(=O)[C@H](CCCNC(=N)N)NC(=O)[C@H](Cc2ccc(O)cc2)NC(=O)[C@H](C(C)C)NC(=O)[C@@H](NC(=O)[C@@H](NC(=O)[C@H](CC(N)=O)NC(=O)[C@H](Cc2c[nH]c3ccccc23)NC(=O)[C@H](C)NC(=O)[C@H](Cc2ccccc2)NC(=O)CN)C(C)C)CSSC[C@@H](C(=O)N[C@@H](Cc2cnc[nH]2)C(=O)N[C@@H](CCCNC(=N)N)C(=O)N[C@@H](CCCNC(=N)N)C(=O)N[C@@H](C)C(=O)N[C@@H](CC(N)=O)C(N)=O)NC(=O)[C@H](C(C)C)NC(=O)[C@H](CCCNC(=N)N)NC1=O |  | ICR mouse, serum | ip, 10 mg/kg, 3 d dosing, blood day 5 | blood urea nitrogen | 10.1 ± 0.83 mmol/L |
| C[C@]1(O)C[C@@](N)(c2ccc(-c3nc4n(c3-c3ccccc3)COc3ccncc3-4)cc2)C1 |  | human, advanced or metastatic solid tumours | 28 mg intermittent, phase I dose escalation | patients with Diarrhea TEAE | 33.3% |
| C[C@@H](NC(=O)N1C(=O)[C@H](Cc2ccnc(N)c2)[C@H]1C(=O)O)C1CCCCC1 |  | healthy adult Chinese volunteers | continuous intravenous infusion, 1.0 mg/kg/h, 5-day infusion, CTCAE 5.0 grading | incidence of mild AEs | 37.5% |
| CC(C)(O)c1cc(Nc2cc(Oc3cn(C4CC4)nc3C3CCOCC3)ccn2)ccn1 | Asthenia | patients with advanced cancer, grade 4 glioma expansion | oral, 50 mg twice daily, grade ≥3, 2 weeks on/2 weeks off schedule | treatment-related adverse events | 0% |
| O=C(O)CCCOc1ccc(F)cc1-c1cc(-c2ccccc2C(F)(F)F)n(-c2ccccc2)n1 |  | female Crl:CD(SD) rats, kidneys | intravenous, 25 µg/kg, 1 d | relative organ weight | 0.79 ± 0.03 g% |
| CCCCCOc1ccc(-c2ccc(-c3ccc(C(=O)N[C@H]4C[C@@H](O)[C@@H](OCC[N+](C)(C)C)NC(=O)[C@@H]5[C@@H](O)[C@@H](C)CN5C(=O)[C@H]([C@@H](C)O)NC(=O)[C@H]([C@H](O)[C@@H](O)c5ccc(O)cc5)NC(=O)[C@@H]5C[C@@H](O)CN5C(=O)[C@H]([C@@H](C)O)NC4=O)cc3)cc2)cc1 |  | adult ICU patients, mITT, serum | dose not given, Baseline | potassium | 4.2 mmol/L |

Repeated from above:
| Structure (SMILES) | test | test system | conditions | quantity | result |
| --- | --- | --- | --- | --- | --- |
| Cc1cc(C)c(CNC(=O)c2cc(Cl)c3c(c2C)O[C@@](C)([C@H]2CC[C@H](N(C)C)CC2)O3)c(=O)[nH]1 |  | human, relapsed/refractory NHL | concentration not given, all TEAEs, grade 5 | Pruritus incidence | 0% |
